Results from different studies.
Protocols differ between the studies behind these lines. ± gives the spread as reported.

Molecule	tested on	test	test system	setting	measurement	value
Cc1sc2c(c1C)C(c1ccc(Cl)cc1)=N[C@@H](CC(=O)OC(C)(C)C)c1nnc(C)n1-2	Light II cells	GLI reporter gene, inhibitor	–	Hedgehog pathway	IC50	0.0026 ± 0.0017 µM
CC(C)=CCc1c(O)cc2oc3cc(O)c(O)c(CC=C(C)C)c3c(=O)c2c1O	H1L6.1c3	cell viability, MTT	–	–	IC50	65 ± 3.5 µM
N.N.[Cl][Pt][Cl]	human iPSC-derived sensory neurons	neurite total length, high-content imaging	–	48 h	IC50	0.005 µM
NC(=O)c1ncn2c(=O)n(CCCl)nnc12	U87 MGMT-negative	Alamar Blue	–	7 d	IC50	30 µM
COc1cc(O)c2c(c1)/C=C/C[C@H](O)[C@H](O)C(=O)/C=C/C[C@H](C)OC2=O	NCI-H460	cell growth or viability	–	72 h	IC50	1.2 µM
O=C(Cn1cnc2ccccc2c1=O)Nc1cc(Cl)ccc1O	HepG2.2.15	cell growth or viability, crystal violet	–	48 h	IC50	> 100 µM
lead	U-251 overexpressing EphA2	cell viability, MTT	–	48 h	IC50	2.1 ± 1.05 µM
ClC1=C(Cl)C2(Cl)C3C4C=CC(C4)C3C1(Cl)C2(Cl)Cl (stereo not shown)	PC6-3	cell viability, MTT	–	4 h	IC50	46 µM
CC(C)[C@@H]1NC(=O)[C@H](C)OC(=O)[C@@H](C(C)C)NC(=O)[C@@H](C(C)C)OC(=O)[C@H](C(C)C)NC(=O)[C@H](C)OC(=O)[C@@H](C(C)C)NC(=O)[C@@H](C(C)C)OC(=O)[C@H](C(C)C)NC(=O)[C@H](C)OC(=O)[C@@H](C(C)C)NC(=O)[C@@H](C(C)C)OC1=O	SHG-44	cell growth or viability, SRB	–	–	IC50	0.021 µM
N.N.[Cl][Pt][Cl]	HFF	cell growth or viability, MTT	–	24 h, dark	IC50	82 µM
CC(C)c1ccc2c(c1)CC[C@H]1[C@](C)(CN)CCC[C@]21C	FF2441	cell growth or viability, MTS	–	72 h	IC50	5.17 µM
O=C(Cn1cnc2ccccc2c1=O)NCc1cccnc1	HEK293	cell growth or viability, crystal violet	–	48 h	IC50	> 100 µM
CC(C)[C@]12O[C@H]1[C@@H]1O[C@]13[C@]1(O[C@H]1C[C@H]1C4=C(CC[C@@]13C)C(=O)OC4)[C@@H]2O	HEK-293T	cell growth or viability, thymidine uptake	–	24 h	IC50	0.0056 µM
Nc1nc2[nH]c(CCCc3csc(C(=O)N[C@@H](CCC(=O)O)C(=O)O)c3)cc2c(=O)[nH]1	IGROV-1 knockdown cells	cell growth	–	–	IC50	0.019 to 0.138 µM
N.N.O=C([O-])C1(C(=O)[O-])CCC1.[Pt+2]	SW480	cell viability, MTT	–	96 h	IC50	37 ± 1 µM
N.N.[Cl][Pt][Cl]	NCI-H1703	cell growth or viability, MTT	–	4 h	IC50	56.8 µM
CC(/C=C/C(C)=C/[C@@H]1Cc2nc(cs2)CCCCC(=O)O[C@@H](C)C/C(C)=C/C=C\C(=O)O1)=C\CN(C)C	primary CLL cells	apoptosis, annexin V/PI staining	–	24 h, 10% FBS	IC50	0.64 ± 0.29 µM

Molecule	tested on	test	test system	setting	measurement	value
Nc1ncnc2c1ncn2[C@H]1CC[C@@H](CO)O1	human T-lymphocyte	cell growth or viability	–	72 h	IC50	> 250 µM
NC(=S)N/N=C/C=N/NC(N)=S	HeLa	cell growth or viability, MTT	–	–	IC50	0.067 µM
Cc1ccccc1-n1c(Cn2cnc3c(N)ncnc32)nc2cccc(C)c2c1=O	Ri-1 B cell lymphoma	inhibitor, refers to: Akt Ser473 phosphorylation	–	30 min preincubation, 37 °C, with: anti-IgM 1 h	IC50	> 7.8 µM
CO[C@H]1/C=C\C=C(/C)C(=O)NC2=CC(=O)C(NCCN(C)C)=C(C[C@@H](C)C[C@H](OC)[C@H](O)[C@@H](C)/C=C(\C)[C@@H]1OC(N)=O)C2=O	H2030 (EGFR wild type)	cell viability, Alamar Blue	–	120 h	IC50	< 0.01 µM
O=C1[O][Pt]2([NH][C@@H]3CCCC[C@H]3[NH]2)[O]C1=O	CCD-18Co	cell growth or viability, MTT	–	72 h	IC50	31.3 µM
CN[C@@](C)(C[18F])C(=O)O	–	–	SCID mouse U87 xenograft, spleen	15 min, post injection	tissue uptake	16 ± 6.7 %ID/g
CCC(C)C(OC(C)=O)C(=O)O[C@H]1[C@H](O)[C@@H]2[C@@]3(C)C=CC(=O)C(C)(C)[C@@H]3C[C@@H](OC(=O)C(O)C(C)C)[C@@]2(C)[C@@]23O[C@@H]2C[C@@H](c2ccoc2)[C@]13C (stereo partly shown)	LAPC4	AR transcriptional activity, antagonist, PSA promoter luciferase	–	24 h	IC50	16.6 µM
CCCCCCCCCCCCCCCCCCOP(=O)([O-])OC1CC[N+](C)(C)CC1	MDA-MB-231 spheroids, LINK-A PIP3-BM+/+	spheroid growth, 3D spheroid viability	–	–	IC50	214 µM
CN(CC[C@H](N)CC(=O)N[C@H]1C=C[C@H](n2ccc(N)nc2=O)O[C@@H]1C(=O)O)C(=N)N	LAPC4	AR transcriptional activity, antagonist, PSA promoter luciferase	–	24 h	IC50	10 µM
C#CC[C@H](N)C(=O)N[C@@H](C)C(=O)N1CCC[C@H]1C(=O)N1CCC[C@H]1C(=O)NCC(=O)N[C@@H](CCCN)C(=O)N[C@@H](CCCNC(=N)N)C(=O)N[C@@H](CC(C)C)C(=O)N[C@@H](CCCNC(=N)N)C(=O)N[C@@H](CO)C(=O)NCC(=O)N[C@@H](CCCNC(=N)N)C(=O)N[C@@H](CO)C(=O)N[C@H](C(=O)NCC(=O)N[C@@H](C)C(=O)N1CCC[C@H]1C(=O)N[C@@H](CC(C)C)C(=O)N[C@H](C(=O)N[C@@H](CCCNC(=N)N)C(=O)NCC(=O)N[C@@H](CO)C(N)=O)[C@@H](C)O)[C@@H](C)O	HEK293	cell growth or viability, MTT	–	–	IC50	> 200 µM
N.N.[Cl][Pt][Cl]	NIH3T3	cell viability, MTT	–	24 h	IC50	> 50 µM
CC1(C)OC2=C(C(=O)c3ccccc3C2=O)C1Nc1cccc(-c2cn(C[Se]c3ccccc3)nn2)c1 (stereo not shown)	six human cancer cell lines	MTT	–	72 h, range over cell lines	IC50	0.68 to 1.71 µM
C#CC[C@H](NC(=O)[C@H](CO)NC(=O)CNC(=O)[C@H](CCCNC(=N)N)NC(=O)[C@@H](NC(=O)[C@H](CC(C)C)NC(=O)[C@@H]1CCCN1C(=O)[C@H](C)NC(=O)CNC(=O)[C@@H](NC(=O)[C@H](CO)NC(=O)[C@H](CCCNC(=N)N)NC(=O)CNC(=O)[C@H](CO)NC(=O)[C@H](CCCNC(=N)N)NC(=O)[C@H](CC(C)C)NC(=O)[C@H](CCCNC(=N)N)NC(=O)[C@H](CCCN)NC(=O)CNC(=O)[C@@H]1CCCN1C(=O)[C@@H]1CCCN1C(=O)[C@H](C)N)[C@@H](C)O)[C@@H](C)O)C(N)=O	A2780	cell growth or viability, MTT	–	–	IC50	> 200 µM
O=S(=O)([O-])[O-].[Cu+2]	Caco-2 monolayers	transepithelial resistance	–	48 h, repeated dosing	IC50	578 µM
Cc1nccn1CC1CCc2c(c3ccccc3n2C)C1=O (stereo not shown)	293FT	cell viability	–	–	IC50	> 15 µM
Cc1ccc(NC(=O)Cn2cnc3ccccc3c2=O)c(O)c1	HepG2.2.15	cell growth or viability, crystal violet	–	48 h	IC50	> 100 µM
N.N.[Cl][Pt][Cl]	SMMC-7721	cell growth or viability, CCK-8	–	–	IC50	9.32 µM

Repeated from above:
Molecule	tested on	test	test system	setting	measurement	value
CN[C@@](C)(C[18F])C(=O)O	–	–	SCID mouse U87 xenograft, spleen	15 min, post injection	tissue uptake	16 ± 6.7 %ID/g
N.N.[Cl][Pt][Cl]	NCI-H1703	cell growth or viability, MTT	–	4 h	IC50	56.8 µM
O=C(Cn1cnc2ccccc2c1=O)NCc1cccnc1	HEK293	cell growth or viability, crystal violet	–	48 h	IC50	> 100 µM
O=C1[O][Pt]2([NH][C@@H]3CCCC[C@H]3[NH]2)[O]C1=O	CCD-18Co	cell growth or viability, MTT	–	72 h	IC50	31.3 µM
CCC(C)C(OC(C)=O)C(=O)O[C@H]1[C@H](O)[C@@H]2[C@@]3(C)C=CC(=O)C(C)(C)[C@@H]3C[C@@H](OC(=O)C(O)C(C)C)[C@@]2(C)[C@@]23O[C@@H]2C[C@@H](c2ccoc2)[C@]13C (stereo partly shown)	LAPC4	AR transcriptional activity, antagonist, PSA promoter luciferase	–	24 h	IC50	16.6 µM
Cc1nccn1CC1CCc2c(c3ccccc3n2C)C1=O (stereo not shown)	293FT	cell viability	–	–	IC50	> 15 µM
